Results from different studies.
Each line is one published result; not all experiments were run side by side.
RB1CC1: RB1CC1 1490-1594 (Homo sapiens, UniProt Q8TDY2)
UniProt Q8TDY2, sequence (whole entry, looked up): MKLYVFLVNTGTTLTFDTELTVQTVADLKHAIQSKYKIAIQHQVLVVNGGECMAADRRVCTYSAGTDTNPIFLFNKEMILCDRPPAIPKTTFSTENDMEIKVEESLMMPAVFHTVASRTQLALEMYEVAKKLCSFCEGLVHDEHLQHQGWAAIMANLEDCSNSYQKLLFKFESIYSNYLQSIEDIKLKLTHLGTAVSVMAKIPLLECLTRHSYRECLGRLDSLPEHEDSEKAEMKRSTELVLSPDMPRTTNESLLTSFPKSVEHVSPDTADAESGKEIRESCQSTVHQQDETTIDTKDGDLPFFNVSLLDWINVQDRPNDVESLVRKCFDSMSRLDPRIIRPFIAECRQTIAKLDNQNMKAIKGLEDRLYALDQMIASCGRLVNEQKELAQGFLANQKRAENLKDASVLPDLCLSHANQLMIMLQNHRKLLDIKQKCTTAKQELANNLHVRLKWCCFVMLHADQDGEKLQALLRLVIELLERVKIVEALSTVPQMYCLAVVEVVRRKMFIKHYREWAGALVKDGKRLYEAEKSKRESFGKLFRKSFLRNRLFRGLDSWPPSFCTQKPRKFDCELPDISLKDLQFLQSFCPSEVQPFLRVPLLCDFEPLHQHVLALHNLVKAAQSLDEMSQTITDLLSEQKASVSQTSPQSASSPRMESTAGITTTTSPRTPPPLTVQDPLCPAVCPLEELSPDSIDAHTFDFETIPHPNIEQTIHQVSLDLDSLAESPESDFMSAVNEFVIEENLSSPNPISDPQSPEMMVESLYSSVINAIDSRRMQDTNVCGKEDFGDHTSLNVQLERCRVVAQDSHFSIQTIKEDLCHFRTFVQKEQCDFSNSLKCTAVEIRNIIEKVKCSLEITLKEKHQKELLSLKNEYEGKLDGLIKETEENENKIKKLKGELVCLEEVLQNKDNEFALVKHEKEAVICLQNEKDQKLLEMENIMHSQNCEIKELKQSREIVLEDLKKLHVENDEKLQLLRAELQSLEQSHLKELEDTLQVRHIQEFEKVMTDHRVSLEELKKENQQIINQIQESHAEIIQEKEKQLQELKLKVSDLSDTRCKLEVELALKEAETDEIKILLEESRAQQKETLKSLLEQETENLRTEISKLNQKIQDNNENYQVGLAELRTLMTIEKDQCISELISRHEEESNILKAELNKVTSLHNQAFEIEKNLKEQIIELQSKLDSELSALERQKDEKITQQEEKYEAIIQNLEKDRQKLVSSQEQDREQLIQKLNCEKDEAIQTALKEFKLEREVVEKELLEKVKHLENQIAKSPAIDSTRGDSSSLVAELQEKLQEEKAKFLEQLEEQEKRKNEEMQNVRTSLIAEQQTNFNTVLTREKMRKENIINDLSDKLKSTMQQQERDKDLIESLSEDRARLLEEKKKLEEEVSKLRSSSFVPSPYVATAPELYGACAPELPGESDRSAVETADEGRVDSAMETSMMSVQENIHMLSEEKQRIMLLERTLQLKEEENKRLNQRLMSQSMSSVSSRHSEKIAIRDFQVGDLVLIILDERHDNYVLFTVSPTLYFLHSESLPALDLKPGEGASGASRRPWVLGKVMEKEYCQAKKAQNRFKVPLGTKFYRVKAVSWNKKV
T1: CREB1 160-280 (Rattus norvegicus); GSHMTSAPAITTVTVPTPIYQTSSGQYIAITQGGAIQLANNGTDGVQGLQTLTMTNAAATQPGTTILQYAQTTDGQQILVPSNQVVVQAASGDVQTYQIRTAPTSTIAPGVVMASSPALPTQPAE
B1: NEDD4L 492-581 (Homo sapiens, UniProt Q96PU5); chain HKVTQSFLPPGWEMRIAPNGRPFFIDHNTKTTTWEDPRLKFPVHMRSKTSLNPNDLGPLPPGWEERIHLDGRTFYIDHNSKITQWEDPRL
B2: RRP42 1-265 (Saccharomyces cerevisiae, UniProt Q12277); chain MSLSVAEKSYLYDSLASTPSIRPDGRLPHQFRPIEIFTDFLPSSNGSSRIIASDGSECIVSIKSKVVDHHVENELLQVDVDIAGQRDDALVVETITSLLNKVLKSGSGVDSSKLQLTKKYSFKIFVDVLVISSHSHPVSLISFAIYSALNSTYLPKLISAFDDLEVEELPTFHDYDMVKLDINPPLVFILAVVGNNMLLDPAANESEVANNGLIISWSNGKITSPIRSVALNDSNVKSFKPHLLKQGLAMVEKYAPDVVRSLENL
B3: TAF4 Q1 domain, 428-492 (Homo sapiens, UniProt O00268); chain GSHMTPTVLAPRLPQPPQNPTNIQNFQLPPGMVLVRSENGQLLMIPQQALAQMQAQAHAQPQTTMAPRP
B4: PTK2 1-101 (Homo sapiens, UniProt Q05397); sequence looked up; chain MAAAYLDPNLNHTPNSSTKTHLGTGMERSPGAMERVLKVFHYFESNSEPTTWASIIRHGDATDVRGIIQKIVDSHKVKHVACYGFRLSHLRSEEVHWLHVD
B5: EFR3B 716-787 (Homo sapiens, UniProt Q9Y2G0); chain VPAEEITYETLKKAIVDSVAVEEQERERRRQVVEKFQKAPFEEIAAHCGARASLLQSKLNQIFEITIRPPPS
B6: EIF5B 1076-1220 (Homo sapiens, UniProt O60841); sequence looked up; chain YKKQKQEEFKHIAVFPCKIKILPQYIFNSRDPIVMGVTVEAGQVKQGTPMCVPSKNFVDIGIVTSIEINHKQVDVAKKGQEVCVKIEPIPGESPKMFGRHFEATDILVSKISRQSIDALKDWFRDEMQKSDWQLIVELKKVFEII
B7: KtrC (Bacillus subtilis, UniProt P39760); sequence looked up; chain MKKEFAVIGLGRFGGSICKALSEEGVEVMAMDIDEDKVNEYAKIASHAVIGDSTDESVLKNLGLRNFDHVIVAIGENIQASILTTLILKELGVHTITVKAQNDYHEKVLSKIGADHIVHPERDMAKRIAHNIVSNNVLDYLELSEEHSLVEIVANSRLAGNTLLDLDIRAKYGINIVAIKRGKEVIVSPLATEVIHQEDILIVIGSVTDISRFEKRVLHTK
B8: GPIHBP1 21-151 (Homo sapiens, UniProt Q8IV16); sequence looked up; chain QTQQEEEEEDEDHGPDDYDEEDEDEVEEEETNRLPGGRSRVLLRCYTCKSLPRDERCNLTQNCSHGQTCTTLIAHGNTESGLLTTHSTWCTDSCQPITKTVEGTQVTMTCCQSSLCNVPPWQSSRVQDPTG
B9: PUM1 800-1186 (Homo sapiens, UniProt Q14671); chain SASSLFSPSSTLFSSSRLRYGMSDVMPSGRSRLLEDFRNNRYPNLQLREIAGHIMEFSQDQHGSRFIQLKLERATPAERQLVFNEILQAAYQLMVDVFGNYVIQKFFEFGSLEQKLALAERIRGHVLSLALQMYGCRVIQKALEFIPSDQQNEMVRELDGHVLKCVKDQNGNHVVQKCIECVQPQSLQFIIDAFKGQVFALSTHPYGCRVIQRILEHCLPDQTLPILEELHQHTEQLVQDQYGNYVIQHVLEHGRPEDKSKIVAEIRGNVLVLSQHKFASNVVEKCVTHASRTERAVLIDEVCTMNDGPHSALYTMMKDQYANYVVQKMIDVAEPGQRKIVMHKIRPHIATLRKYTYGKHILAKLEKYYMKNGVDLGPICGPPNGII
B10: AIR2 1-223 (Saccharomyces cerevisiae, UniProt Q12476); sequence looked up; chain MEKNTAPFVVDTAPTTPPDKLVAPSIEEVNSNPNELRALRGQGRYFGVSDDDKDAIKEAAPKCNNCSQRGHLKKDCPHIICSYCGATDDHYSRHCPKAIQCSKCDEVGHYRSQCPHKWKKVQCTLCKSKKHSKERCPSIWRAYILVDDNEKAKPKVLPFHTIYCYNCGGKGHFGDDCKEKRSSRVPNEDGSAFTGSNLSVELKQEYYRHMNRNSDENEDYQFS
B11: SSPN (Oryctolagus cuniculus, UniProt P82352); sequence looked up; chain MGKDRQPRGQQRQGDAAGPDDPGPKKGAGTREQRGEEEAQTCCGCRFPLLLALLQLALGVAVTVVGFLMASVSSSLLVRATPYWAGIIVCVVAYLGLFMLCVSYQVDERTCIQFSMKLLYFVLSALGLVVCVLAVAFAAHHYSLLTHLTCENAPDSCQCKLPSSEPLSRTFVYRDVTDCTSITGTFQVFLLVQMVLNLVCGLVCLVACFVMWKHRYQVFYVGVRMCPLSASEGQQQKV
B12: POMP (Homo sapiens, UniProt Q9Y244); chain MNARGLGSELKDSIPVTELSASGPFESHDLLRKGFSCVKNELLPSHPLELSEKNFQLNQDKMNFSTLRNIQGLFAPLKLQMEFKAVQQVQRLPFLSSSNLSLDVLRGNDETIGFEDILNDPSQSEVMGEPHLMVEYKLGLL
B13: RAB32 (Homo sapiens, UniProt Q13637); sequence looked up; chain MAGGGAGDPGLGAAAAPAPETREHLFKVLVIGELGVGKTSIIKRYVHQLFSQHYRATIGVDFALKVLNWDSRTLVRLQLWDIAGQERFGNMTRVYYKEAVGAFVVFDISRSSTFEAVLKWKSDLDSKVHLPNGSPIPAVLLANKCDQNKDSSQSPSQVDQFCKEHGFAGWFETSAKDNINIEEAARFLVEKILVNHQSFPNEENDVDKIKLDQETLRAENKSQCC
B14: PUM1 701-1186 (Homo sapiens, UniProt Q14671); chain TGSGSRRDSLTGSSDLYKRTSSSLTPIGHSFYNGLSFSSSPGPVGMPLPSQGPGHSQTPPPSLSSHGSSSSLNLGGLTNGSGRYISAAPGAEAKYRSASSASSLFSPSSTLFSSSRLRYGMSDVMPSGRSRLLEDFRNNRYPNLQLREIAGHIMEFSQDQHGSRFIQLKLERATPAERQLVFNEILQAAYQLMVDVFGNYVIQKFFEFGSLEQKLALAERIRGHVLSLALQMYGCRVIQKALEFIPSDQQNEMVRELDGHVLKCVKDQNGNHVVQKCIECVQPQSLQFIIDAFKGQVFALSTHPYGCRVIQRILEHCLPDQTLPILEELHQHTEQLVQDQYGNYVIQHVLEHGRPEDKSKIVAEIRGNVLVLSQHKFASNVVEKCVTHASRTERAVLIDEVCTMNDGPHSALYTMMKDQYANYVVQKMIDVAEPGQRKIVMHKIRPHIATLRKYTYGKHILAKLEKYYMKNGVDLGPICGPPNGII
B15: IGFBP7 30-159 K146A (Homo sapiens, UniProt Q16270); chain DTCGPCEPASCPPLPPLGCLLGETRDACGCCPMCARGEGEPCGGGGAGRGYCAPGMECVKSRKRRKGKAGAAAGGPGVSGVCVCKSRYPVCGSDGTTYPSGCQLRAASQRAESRGEAAITQVSKGTCEQG
B16: cysJ 52-599 C162T/C552S/E121C/N556C (Escherichia coli, UniProt P38038); E121C-N556C disulfide; sequence looked up; chain AATPAPAAEMPGITIISASQTGNARRVAEALRDDLLAAKLNVKLVNAGDYKFKQIASEKLLIVVTSTQGCGEPPEEAVALHKFLFSKKAPKLENTAFAVFSLGDSSYEFFTQSGKDFDSKLAELGGERLLDRVDADVEYQAAASEWRARVVDALKSRAPVAAPSQSVATGAVNEIHTSPYSKDAPLVASLSVNQKITGRNSEKDVRHIEIDLGDSGMRYQPGDALGVWYQNDPALVKELVELLWLKGDEPVTVEGKTLPLNEALQWHFELTVNTANIVENYATLTRSETLLPLVGDKAKLQHYAATTPIVDMVRFSPAQLDAEALINLLRPLTPRLYSIASSQAEVENEVHVTVGVVRYDVEGRARAGGASSFLADRVEEEGEVRVFIEHNDNFRLPANPETPVIMIGPGTGIAPFRAFMQQRAADEAPGKNWLFFGNPHFTEDFLYQVEWQRYVKDGVLTRIDLAWSRDQKEKVYVQDKLREQGAELWRWINDGAHIYVSGDACRMAKDVEQALLEVIAEFGGMDTEAADEFLSELRVERRYQRDVY
B17: EFR3A 721-791 A734R (Homo sapiens, UniProt Q14156); chain SNTEEITFEALKKRIDTSGMEEQEKEKRRLVIEKFQKAPFEEIAAQCESKANLLHDRLAQILELTIRPPPS
UniProt Q28685, sequence (whole entry, looked up): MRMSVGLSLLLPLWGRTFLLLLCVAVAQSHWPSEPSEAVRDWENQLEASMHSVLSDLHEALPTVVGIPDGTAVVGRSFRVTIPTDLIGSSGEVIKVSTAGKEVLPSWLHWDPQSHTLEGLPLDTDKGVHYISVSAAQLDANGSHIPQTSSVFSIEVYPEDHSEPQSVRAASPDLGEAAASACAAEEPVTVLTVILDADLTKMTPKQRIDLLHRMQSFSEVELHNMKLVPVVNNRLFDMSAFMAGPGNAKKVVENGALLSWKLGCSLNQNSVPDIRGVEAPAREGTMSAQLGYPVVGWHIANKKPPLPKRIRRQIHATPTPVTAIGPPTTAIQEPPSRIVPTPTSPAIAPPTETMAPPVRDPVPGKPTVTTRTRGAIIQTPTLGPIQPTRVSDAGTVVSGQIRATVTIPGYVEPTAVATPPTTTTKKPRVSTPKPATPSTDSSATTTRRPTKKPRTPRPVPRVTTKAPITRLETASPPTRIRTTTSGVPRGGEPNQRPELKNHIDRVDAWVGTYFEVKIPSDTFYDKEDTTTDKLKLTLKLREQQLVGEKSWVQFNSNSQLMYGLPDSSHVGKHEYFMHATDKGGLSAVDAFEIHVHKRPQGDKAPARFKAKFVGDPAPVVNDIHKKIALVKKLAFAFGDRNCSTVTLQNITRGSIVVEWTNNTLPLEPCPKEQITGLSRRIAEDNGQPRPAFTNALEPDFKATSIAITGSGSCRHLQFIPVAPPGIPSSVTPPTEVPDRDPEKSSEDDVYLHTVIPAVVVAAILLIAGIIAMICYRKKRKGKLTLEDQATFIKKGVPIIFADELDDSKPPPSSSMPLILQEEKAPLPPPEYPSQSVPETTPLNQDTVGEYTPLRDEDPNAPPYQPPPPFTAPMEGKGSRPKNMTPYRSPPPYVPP
UniProt P53632, sequence (whole entry, unmodified, looked up): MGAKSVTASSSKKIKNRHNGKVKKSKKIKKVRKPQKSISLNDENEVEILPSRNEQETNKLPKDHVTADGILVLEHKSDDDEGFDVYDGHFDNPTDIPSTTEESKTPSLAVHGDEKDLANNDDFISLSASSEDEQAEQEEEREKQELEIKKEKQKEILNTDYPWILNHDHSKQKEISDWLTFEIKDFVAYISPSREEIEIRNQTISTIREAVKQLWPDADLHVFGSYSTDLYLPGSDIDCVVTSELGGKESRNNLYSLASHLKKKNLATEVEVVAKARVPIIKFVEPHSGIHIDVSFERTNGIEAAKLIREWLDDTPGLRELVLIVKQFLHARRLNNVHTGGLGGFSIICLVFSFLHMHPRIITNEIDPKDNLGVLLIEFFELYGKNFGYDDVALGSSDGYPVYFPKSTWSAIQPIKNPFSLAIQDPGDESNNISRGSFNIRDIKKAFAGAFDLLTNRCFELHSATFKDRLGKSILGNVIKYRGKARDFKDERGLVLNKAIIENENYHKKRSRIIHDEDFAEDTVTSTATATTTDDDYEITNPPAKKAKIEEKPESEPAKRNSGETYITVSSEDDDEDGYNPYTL
UniProt P55010, sequence (whole entry, looked up): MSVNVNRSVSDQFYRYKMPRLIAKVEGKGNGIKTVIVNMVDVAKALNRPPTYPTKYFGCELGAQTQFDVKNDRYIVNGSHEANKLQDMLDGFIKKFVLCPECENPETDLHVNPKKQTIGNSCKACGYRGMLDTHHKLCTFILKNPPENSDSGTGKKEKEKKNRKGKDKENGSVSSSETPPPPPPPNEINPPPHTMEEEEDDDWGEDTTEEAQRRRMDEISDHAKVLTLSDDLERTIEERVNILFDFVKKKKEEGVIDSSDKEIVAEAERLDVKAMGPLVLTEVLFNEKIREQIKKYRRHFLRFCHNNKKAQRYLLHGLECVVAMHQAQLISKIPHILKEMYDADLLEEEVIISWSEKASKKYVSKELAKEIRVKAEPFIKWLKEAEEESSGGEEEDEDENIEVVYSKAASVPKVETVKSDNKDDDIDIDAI
UniProt Q12142, sequence (whole entry, looked up): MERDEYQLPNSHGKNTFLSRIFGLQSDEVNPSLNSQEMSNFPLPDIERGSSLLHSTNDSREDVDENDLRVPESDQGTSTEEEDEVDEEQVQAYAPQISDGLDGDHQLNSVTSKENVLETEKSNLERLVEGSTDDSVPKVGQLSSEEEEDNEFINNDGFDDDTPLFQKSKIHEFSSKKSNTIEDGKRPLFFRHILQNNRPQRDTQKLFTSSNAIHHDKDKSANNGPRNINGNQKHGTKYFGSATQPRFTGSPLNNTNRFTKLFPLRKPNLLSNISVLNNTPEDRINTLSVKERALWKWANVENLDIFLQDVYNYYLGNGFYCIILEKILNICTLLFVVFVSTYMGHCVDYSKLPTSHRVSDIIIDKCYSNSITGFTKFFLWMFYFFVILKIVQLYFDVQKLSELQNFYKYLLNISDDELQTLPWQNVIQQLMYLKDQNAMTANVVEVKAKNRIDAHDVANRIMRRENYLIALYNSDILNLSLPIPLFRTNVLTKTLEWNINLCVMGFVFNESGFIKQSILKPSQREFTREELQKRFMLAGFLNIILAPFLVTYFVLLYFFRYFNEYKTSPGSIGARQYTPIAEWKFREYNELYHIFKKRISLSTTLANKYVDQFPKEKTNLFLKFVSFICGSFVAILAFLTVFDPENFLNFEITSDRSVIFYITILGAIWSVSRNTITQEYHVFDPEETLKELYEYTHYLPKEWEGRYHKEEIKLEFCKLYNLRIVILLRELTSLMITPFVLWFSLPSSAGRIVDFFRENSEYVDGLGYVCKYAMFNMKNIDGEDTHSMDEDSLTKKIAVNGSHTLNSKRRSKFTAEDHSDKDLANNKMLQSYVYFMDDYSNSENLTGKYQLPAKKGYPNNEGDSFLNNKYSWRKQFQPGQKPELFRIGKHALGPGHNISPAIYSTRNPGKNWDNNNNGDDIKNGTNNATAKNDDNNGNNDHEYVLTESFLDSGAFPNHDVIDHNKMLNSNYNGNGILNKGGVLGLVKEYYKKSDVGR
UniProt Q96CV9, sequence (whole entry, looked up): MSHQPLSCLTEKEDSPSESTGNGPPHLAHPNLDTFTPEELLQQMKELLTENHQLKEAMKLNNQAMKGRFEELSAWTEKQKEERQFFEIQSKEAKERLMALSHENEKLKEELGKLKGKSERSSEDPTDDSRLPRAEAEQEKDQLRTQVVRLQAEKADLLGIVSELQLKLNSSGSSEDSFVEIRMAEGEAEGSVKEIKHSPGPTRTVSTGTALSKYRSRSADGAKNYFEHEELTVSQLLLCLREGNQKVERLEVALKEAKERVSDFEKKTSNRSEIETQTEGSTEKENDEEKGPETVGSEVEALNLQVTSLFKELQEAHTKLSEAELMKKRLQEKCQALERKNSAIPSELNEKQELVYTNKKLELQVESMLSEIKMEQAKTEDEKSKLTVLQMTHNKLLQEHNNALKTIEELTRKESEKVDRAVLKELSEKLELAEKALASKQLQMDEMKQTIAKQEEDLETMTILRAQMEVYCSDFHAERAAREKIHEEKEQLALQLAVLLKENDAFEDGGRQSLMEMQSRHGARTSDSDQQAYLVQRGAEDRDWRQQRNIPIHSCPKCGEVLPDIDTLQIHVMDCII

With `GSGAGPETLV` the binding intensity was 0.526 (human SCRIB PDZ3-4 tandem (MBP fusion); automated holdup; peptide, crude extract; concentration not given, uncorrected, unit not given; reference: biotin control resin, higher = stronger binding).
Under binding, `B1 (NEDD4L 492-581)` is recorded as “binds” (NaV1.7/calmodulin NaV1.7 C-terminus (Homo sapiens); SEC).
Under binding, `B2 (RRP42 1-265)` is recorded as “binds” (RRP4 (Saccharomyces cerevisiae, UniProt P38792); cryo-EM).
For `B3 (TAF4 Q1 domain, 428-492)`, binding read “binds” (T1, CREB1 160-280 (Rattus norvegicus); NMR).
`B4 (PTK2 1-101)` — result for binding: “binds” (PRKCQ (Homo sapiens, UniProt Q04759); pull-down).
`B5 (EFR3B 716-787)`: binding “binds” (TTC7A/FAM126A FAM126A 1-308; BLI).
For `B6 (EIF5B 1076-1220)`, binding read “binds” (EIF5 232-431 (Homo sapiens, UniProt P55010); NMR titration).
The MIC of `colistin` is reported as 1 mg/L (Pseudomonas aeruginosa; broth microdilution; clinical isolate RKI-No_615/15).
`B7 (KtrC)`: binding “binds” (ktrB 1-445 (Bacillus subtilis, UniProt O32081); SEC).
For `B8 (GPIHBP1 21-151)`, binding read “binds” (LPL mature (Bos taurus, UniProt P11151); HDX-MS).
`B9 (PUM1 800-1186)` — result for binding: “binds” (CNOT1/CNOT2/CNOT3 NOT module 1833-2361; pull-down).
Under “normalised SPR binding response”, `GSGAGKETYY` is recorded as 0 normalised RU (human MAGI1-2/6 PDZ construct (MBP fusion); surface plasmon resonance; peptide; concentration not given; higher = stronger binding).
Under binding, `B10 (AIR2 1-223)` is recorded as “binds” (PAP2 D236A/D238A (Saccharomyces cerevisiae, UniProt P53632); HDX-MS).
`B11 (SSPN)` — result for binding: “binds” (β-dystroglycan mature, N-linked glycans (Oryctolagus cuniculus, UniProt Q28685); cryo-EM structure).
`B12 (POMP)` — result for binding: “binds” (PSMB3 (Homo sapiens, UniProt P49720); cryo-EM).
With `11-deoxycorticosterone` the rate constant was 6.19 min⁻¹ (stopped-flow global kinetic fitting; 4-state closed model (best), 40-fold adrenodoxin excess, together with: substrate binding k3).
`HEEWEMVPRHS (STBD1 200-210 (Homo sapiens, UniProt O95210))`: binding “binds” (RB1CC1; SEC).
`ACKGQGSMDEGTADERAPLIRT (SCARB2 457-478 (Homo sapiens, UniProt Q14108))`: binding “binds” (AP2A2/AP2B1/AP2M1/AP2S1 core, lacking appendage domains (Mus musculus); pull-down; peptide).
`B13 (RAB32)` — result for binding: “binds” (OPTN (Homo sapiens, UniProt Q96CV9); pull-down).
For `SNEWLLPRSPYK (engineered peptide)`, binding read “binds” (EPHB2 19-543 (Homo sapiens, UniProt P29323); SPR; peptide).
`B14 (PUM1 701-1186)`: binding “binds” (CNOT1/CNOT2/CNOT3 C-terminal NOT module 1833-2361; pull-down).
`LNTRGGSFQDFRAEFIQRSTQFLTSLPEFCKEVVSRILGRSTAQRGGYSAV (ATG27 221-271 (Saccharomyces cerevisiae, UniProt P46989); sequence looked up)` — result for binding: “binds” (ATG9 2-318 (Saccharomyces cerevisiae, UniProt Q12142); pull-down).
`B15 (IGFBP7 30-159 K146A)`: binding “binds” (CD93 25-347 (Homo sapiens, UniProt Q9NPY3); ITC; 25 °C).
`Peginesatide` has a phosphorylation level of 21.8 fold (UT7/EPO; tyrosine phosphorylation, LC-MS/MS phosphoproteomics, GluC, refers to: KLF5 tyrosine 95; 10 nM, 15 min, together with: 10 U/mL EPO; reference: vehicle).
For `B16`, binding read “binds” (cysI 1-570 (Escherichia coli, UniProt P17846); cryo-EM structure).
For `ENEEDILVVTTQG (CALCOCO2 128-140 (Homo sapiens); N-terminal FITC, phosphothreonine)`, binding read “binds” (RB1CC1; fluorescence polarisation; peptide).
`B17 (EFR3A 721-791 A734R)`: binding “binds” (TTC7B/FAM126A FAM126A 1-308 (Homo sapiens); BLI).

A few entries again:
`HEEWEMVPRHS (STBD1 200-210 (Homo sapiens, UniProt O95210))`: binding “binds” (RB1CC1; SEC).
`ACKGQGSMDEGTADERAPLIRT (SCARB2 457-478 (Homo sapiens, UniProt Q14108))`: binding “binds” (AP2A2/AP2B1/AP2M1/AP2S1 core, lacking appendage domains (Mus musculus); pull-down; peptide).
`B13 (RAB32)` — result for binding: “binds” (OPTN (Homo sapiens, UniProt Q96CV9); pull-down).
